{"data": "Assay results collected from several papers", "note": "Compare with care: the assays were run in different laboratories. Numbers after ± are the reported error."}
{"Molecule": "CC12CC3CC(C)(C1)CC(N)(C3)C2", "system": "human", "conditions": "0.5 mg/kg/day, 9072 h, added: valproic acid", "quantity": "seizure frequency", "value": "3.3 per week"}
{"Molecule": "Cc1cnc(-c2ccnc(C(C)(C)O)n2)cc1-n1c(C)cc(OCc2ncc(F)cc2F)c(Cl)c1=O", "test": "HSP27 phosphorylation", "system": "human, ex vivo whole blood, plasma level", "conditions": "added: lipopolysaccharide", "quantity": "IC80", "value": "0.0367 µg/mL"}
{"Molecule": "CC(C)(C(=O)NCC(F)(F)C(F)(F)F)C(=O)N[C@@H]1C(=O)Nc2ccccc2-c2ccccc21", "system": "patients with refractory solid tumours", "conditions": "dose not given, added: capecitabine", "quantity": "partial response rate", "value": "10%"}
{"Molecule": "CS/C(S)=N/CCCC[S+](C)[O-] (racemic)", "test": "RT-PCR, refers to: Nos2 (inducible)", "system": "rat, colon", "conditions": "oral gavage, 200 mg/kg, 96 h, dosed for four days", "scale": "relative to: vehicle", "quantity": "mRNA fold change", "value": 2.32}
{"Molecule": "COCCCCn1c(C(=O)N(CC(C)C)[C@@H]2CNC[C@H](C(=O)N3CCOCC3)C2)nc2ccccc21", "test": "radioimmunoassay", "system": "humans", "conditions": "dose not given", "scale": "relative to: baseline", "quantity": "plasma aldosterone change", "value": "no effect"}
{"Molecule": "Cc1c2ccccc2c(C)c2c1ccc1ccccc12", "test": "inducer", "system": "rat, liver", "conditions": "intravenous, 5 mg at 0 h and 5 mg at 24 h, 48 h", "scale": "relative to: untreated control", "quantity": "menadione reductase activity", "value": "316%"}
{"Molecule": "CC1(C)C(/C=C/C=C/C=C/C=C2\\N(CCCCS(=O)(=O)O)c3ccc4ccccc4c3C2(C)C)=[N+](CCCCS(=O)(=O)[O-])c2ccc3ccccc3c21", "test": "ex vivo NIR imaging", "system": "MDA-MB-231-iRFP, mouse xenograft", "conditions": "intravenous, 0.5 mg/kg, 24 h", "quantity": "concordance with iRFP signal", "value": "12%"}
{"Molecule": "DWFKAFYDKVAEKFKEAF (N-acetyl, C-amide)", "test": "Oil Red O en face", "system": "peptide, female apoE-null mice, aorta", "conditions": "retro-orbital, 100 µg three times weekly, 6 weeks", "scale": "relative to: control group", "quantity": "aortic lesion area", "value": "decreased"}
{"Molecule": "O=C1c2c(O)cc(O)cc2O[C@H](c2cc(O)c(O)c(O)c2)[C@H]1O", "system": "rat, intermittent ethanol access", "conditions": "oral in drinking fluid, 0.05 mg/mL, end of week 8, from week 7", "quantity": "ethanol intake", "value": "1.2 ± 0.2 g/kg/day"}
{"Molecule": "LYQY", "system": "peptide, EpH4, mouse", "conditions": "350 µM, 24 h, recovery after calcium switch", "quantity": "transepithelial resistance", "value": "825 ± 156 Ohm·cm²"}
{"Molecule": "CC(C)n1cnc(-c2ccc(F)cc2)c1-c1ncc(C(=O)Nc2ccc(N3CCN(C)CC3)cc2)[nH]1", "system": "human patients, serum", "conditions": "30 mg twice daily, Padj below 0.05, unit not given", "scale": "relative to: placebo", "quantity": "differentially abundant proteins", "value": 8}
{"Molecule": "C[C@H]1C[C@H]2CSC(N)=N[C@@]2(c2nc(NC(=O)c3ccc(OC(F)F)cn3)cs2)CO1", "test": "refers to: CSF Aβ1–42", "system": "healthy adults", "conditions": "50 mg once daily, 14 days, day 15", "scale": "relative to: placebo-adjusted baseline", "quantity": "change from baseline", "value": "-69.9%"}
{"Molecule": "COc1ccc(-c2nc3ccccc3s2)cc1OCc1nnc(Cc2ccccc2)o1", "test": "seizure protection", "system": "albino mouse, scPTZ-induced seizure", "conditions": "ip, 0.5 h", "quantity": "minimal effective dose", "value": "100 mg/kg"}
{"Molecule": "Cc1c(OCC(F)(F)F)ccnc1C[S@@+]([O-])c1nc2ccccc2[nH]1", "system": "healthy humans", "conditions": "oral, 60 mg, 0 to 24 h postdose, single dose", "quantity": "mean intragastric pH", "value": 4.3}
{"Molecule": "COc1ccc(-c2nc3ccccc3s2)cc1OCc1nnc(-c2c(C)cccc2C)o1", "test": "seizure protection", "system": "albino mouse, scPTZ-induced seizure", "conditions": "ip, 4.0 h", "quantity": "minimal effective dose", "value": "300 mg/kg"}
{"Molecule": "CC(/C=C/C(=O)NO)=C\\[C@@H](C)C(=O)c1ccc(N(C)C)cc1", "test": "inhibitor, ELISA", "system": "wild-type mice, serum", "conditions": "dose not given, 2 h after LPS, daily dosing from day -2, LPS on day 0, added: LPS", "scale": "relative to: LPS-treated vehicle", "quantity": "serum TNF-α reduction", "value": "62%"}
{"Molecule": "COc1ccc(-c2nnc(COc3cc(-c4nc5ccccc5s4)ccc3OC)o2)cc1", "test": "hind limb tonic extension", "system": "albino mouse, MES-induced seizure", "conditions": "ip, 0.5 h", "quantity": "minimal effective dose", "value": "300 mg/kg"}
{"Molecule": "CCOC(=O)C=Cc1ccc(O)c(O)c1", "test": "DPPH", "system": "ethanol", "conditions": "20 µM, 30 min, room temperature", "quantity": "radical scavenging", "value": "72%"}
{"Molecule": "COc1ccc(-c2nc3ccccc3s2)cc1OCc1nnc(-c2ccc(Br)cc2)o1", "test": "hind limb tonic extension", "system": "albino mouse, MES-induced seizure", "conditions": "ip, 0.5 h", "quantity": "minimal effective dose", "value": "300 mg/kg"}
{"Molecule": "CNCC(CS)CNC", "system": "nude mouse, B16 melanoma xenograft", "conditions": "topical, 1850 mM, four applications, 14 days, added: 9.2 Gy irradiation", "scale": "relative to: topical vehicle", "quantity": "irradiated tumour growth", "value": "no effect"}
{"note": "Repeated from above:"}
{"Molecule": "Cc1c2ccccc2c(C)c2c1ccc1ccccc12", "test": "inducer", "system": "rat, liver", "conditions": "intravenous, 5 mg at 0 h and 5 mg at 24 h, 48 h", "scale": "relative to: untreated control", "quantity": "menadione reductase activity", "value": "316%"}
{"Molecule": "CC(/C=C/C(=O)NO)=C\\[C@@H](C)C(=O)c1ccc(N(C)C)cc1", "test": "inhibitor, ELISA", "system": "wild-type mice, serum", "conditions": "dose not given, 2 h after LPS, daily dosing from day -2, LPS on day 0, added: LPS", "scale": "relative to: LPS-treated vehicle", "quantity": "serum TNF-α reduction", "value": "62%"}
